Experimental data gathered from unrelated publications.
Parts stem from different laboratories: compare values within a part only.
Chain of UniProt Q9HCP0 (whole entry, looked up): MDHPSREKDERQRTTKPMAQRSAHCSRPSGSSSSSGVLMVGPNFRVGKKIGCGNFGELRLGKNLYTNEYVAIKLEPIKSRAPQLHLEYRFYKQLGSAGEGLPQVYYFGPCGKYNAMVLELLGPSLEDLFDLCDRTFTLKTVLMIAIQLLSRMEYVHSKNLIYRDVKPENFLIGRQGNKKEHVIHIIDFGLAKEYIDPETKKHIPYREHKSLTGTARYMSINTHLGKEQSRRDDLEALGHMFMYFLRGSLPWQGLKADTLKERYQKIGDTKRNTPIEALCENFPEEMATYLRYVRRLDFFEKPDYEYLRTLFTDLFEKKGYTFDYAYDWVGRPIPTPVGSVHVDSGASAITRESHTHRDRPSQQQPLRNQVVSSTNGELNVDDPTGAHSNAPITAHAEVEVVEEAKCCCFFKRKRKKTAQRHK
Chain of UniProt Q9Y2H1 (whole entry, looked up): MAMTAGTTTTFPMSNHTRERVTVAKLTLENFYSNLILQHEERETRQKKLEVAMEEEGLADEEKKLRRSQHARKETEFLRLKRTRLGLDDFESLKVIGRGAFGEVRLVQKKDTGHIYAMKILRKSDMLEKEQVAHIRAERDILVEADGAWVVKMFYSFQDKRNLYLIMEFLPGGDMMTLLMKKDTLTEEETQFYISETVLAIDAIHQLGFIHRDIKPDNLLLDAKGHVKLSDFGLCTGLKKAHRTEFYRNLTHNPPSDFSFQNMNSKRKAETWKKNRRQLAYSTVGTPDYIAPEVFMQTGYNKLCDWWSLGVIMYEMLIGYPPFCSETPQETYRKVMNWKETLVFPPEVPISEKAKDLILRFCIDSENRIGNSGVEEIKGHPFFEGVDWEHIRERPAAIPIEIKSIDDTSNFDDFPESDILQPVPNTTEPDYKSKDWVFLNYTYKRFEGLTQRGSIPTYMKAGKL
Chain of UniProt Q14680 (whole entry, looked up): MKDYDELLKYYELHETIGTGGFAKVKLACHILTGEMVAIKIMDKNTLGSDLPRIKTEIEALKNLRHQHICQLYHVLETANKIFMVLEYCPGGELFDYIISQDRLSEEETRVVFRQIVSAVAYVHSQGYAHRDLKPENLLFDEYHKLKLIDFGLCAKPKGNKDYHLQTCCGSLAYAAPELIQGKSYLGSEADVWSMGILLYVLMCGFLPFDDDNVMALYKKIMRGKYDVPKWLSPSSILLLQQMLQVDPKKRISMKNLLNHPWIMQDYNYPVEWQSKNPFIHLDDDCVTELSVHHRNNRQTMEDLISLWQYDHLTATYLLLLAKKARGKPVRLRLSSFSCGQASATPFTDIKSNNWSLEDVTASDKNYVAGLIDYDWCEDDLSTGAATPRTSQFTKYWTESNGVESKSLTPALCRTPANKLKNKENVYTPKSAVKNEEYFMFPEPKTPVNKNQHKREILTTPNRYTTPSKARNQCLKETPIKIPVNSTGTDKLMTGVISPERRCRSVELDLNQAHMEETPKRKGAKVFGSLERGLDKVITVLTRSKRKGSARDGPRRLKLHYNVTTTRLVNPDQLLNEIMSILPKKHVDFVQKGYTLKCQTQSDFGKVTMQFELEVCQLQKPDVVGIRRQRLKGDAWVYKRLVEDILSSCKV
Chain of UniProt Q9HAZ1 (whole entry, looked up): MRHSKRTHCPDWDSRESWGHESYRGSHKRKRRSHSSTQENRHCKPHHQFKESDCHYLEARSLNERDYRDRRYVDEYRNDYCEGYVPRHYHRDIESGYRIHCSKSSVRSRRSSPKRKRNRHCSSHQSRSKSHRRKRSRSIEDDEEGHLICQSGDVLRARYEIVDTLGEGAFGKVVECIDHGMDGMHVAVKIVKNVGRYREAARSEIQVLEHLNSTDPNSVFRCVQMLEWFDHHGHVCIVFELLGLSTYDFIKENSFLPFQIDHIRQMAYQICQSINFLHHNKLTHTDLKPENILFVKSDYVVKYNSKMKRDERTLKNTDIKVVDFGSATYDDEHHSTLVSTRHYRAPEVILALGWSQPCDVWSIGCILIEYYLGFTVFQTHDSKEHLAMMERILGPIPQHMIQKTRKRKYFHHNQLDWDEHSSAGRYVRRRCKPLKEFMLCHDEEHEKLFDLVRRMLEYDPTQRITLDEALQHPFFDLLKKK
Chain of UniProt Q9BZL6 (whole entry, looked up): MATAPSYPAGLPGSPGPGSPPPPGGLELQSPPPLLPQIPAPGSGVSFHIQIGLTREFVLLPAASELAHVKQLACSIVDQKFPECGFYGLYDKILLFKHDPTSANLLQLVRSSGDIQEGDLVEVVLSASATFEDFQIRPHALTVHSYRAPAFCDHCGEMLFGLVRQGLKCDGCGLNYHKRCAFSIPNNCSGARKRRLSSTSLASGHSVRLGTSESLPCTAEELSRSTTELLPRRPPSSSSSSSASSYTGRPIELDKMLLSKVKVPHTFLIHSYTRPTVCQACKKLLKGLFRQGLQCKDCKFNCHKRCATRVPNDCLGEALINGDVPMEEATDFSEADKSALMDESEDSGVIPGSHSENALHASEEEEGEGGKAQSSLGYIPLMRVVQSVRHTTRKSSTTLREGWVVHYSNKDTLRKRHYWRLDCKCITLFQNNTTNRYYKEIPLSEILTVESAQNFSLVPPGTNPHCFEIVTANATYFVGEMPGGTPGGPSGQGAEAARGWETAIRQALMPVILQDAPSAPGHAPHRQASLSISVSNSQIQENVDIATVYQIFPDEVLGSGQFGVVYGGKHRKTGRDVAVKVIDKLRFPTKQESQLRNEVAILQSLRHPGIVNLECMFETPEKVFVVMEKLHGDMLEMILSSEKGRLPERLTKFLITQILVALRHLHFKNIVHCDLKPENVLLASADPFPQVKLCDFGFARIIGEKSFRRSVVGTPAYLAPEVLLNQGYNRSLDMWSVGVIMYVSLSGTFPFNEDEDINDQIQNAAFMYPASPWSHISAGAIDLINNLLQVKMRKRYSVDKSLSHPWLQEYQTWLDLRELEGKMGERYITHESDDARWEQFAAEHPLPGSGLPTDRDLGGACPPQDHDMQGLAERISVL
Chain of UniProt Q8IVW4 (whole entry, looked up): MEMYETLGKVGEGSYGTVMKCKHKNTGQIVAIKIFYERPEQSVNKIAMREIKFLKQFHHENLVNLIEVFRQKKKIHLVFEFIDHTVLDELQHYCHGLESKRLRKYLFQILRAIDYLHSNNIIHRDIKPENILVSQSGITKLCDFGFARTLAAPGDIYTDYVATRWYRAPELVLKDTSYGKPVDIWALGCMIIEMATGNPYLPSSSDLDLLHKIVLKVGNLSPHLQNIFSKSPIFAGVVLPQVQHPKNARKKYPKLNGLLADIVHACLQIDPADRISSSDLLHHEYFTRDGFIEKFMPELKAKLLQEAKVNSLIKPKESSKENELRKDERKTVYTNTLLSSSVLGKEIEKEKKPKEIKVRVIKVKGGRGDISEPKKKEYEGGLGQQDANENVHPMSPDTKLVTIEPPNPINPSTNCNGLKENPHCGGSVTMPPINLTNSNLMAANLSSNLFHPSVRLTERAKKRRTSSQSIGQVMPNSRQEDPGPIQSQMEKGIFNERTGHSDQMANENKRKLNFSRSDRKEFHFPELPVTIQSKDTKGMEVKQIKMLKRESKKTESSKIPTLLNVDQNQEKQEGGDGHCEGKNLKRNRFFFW
Chain of UniProt P43403 (whole entry, looked up): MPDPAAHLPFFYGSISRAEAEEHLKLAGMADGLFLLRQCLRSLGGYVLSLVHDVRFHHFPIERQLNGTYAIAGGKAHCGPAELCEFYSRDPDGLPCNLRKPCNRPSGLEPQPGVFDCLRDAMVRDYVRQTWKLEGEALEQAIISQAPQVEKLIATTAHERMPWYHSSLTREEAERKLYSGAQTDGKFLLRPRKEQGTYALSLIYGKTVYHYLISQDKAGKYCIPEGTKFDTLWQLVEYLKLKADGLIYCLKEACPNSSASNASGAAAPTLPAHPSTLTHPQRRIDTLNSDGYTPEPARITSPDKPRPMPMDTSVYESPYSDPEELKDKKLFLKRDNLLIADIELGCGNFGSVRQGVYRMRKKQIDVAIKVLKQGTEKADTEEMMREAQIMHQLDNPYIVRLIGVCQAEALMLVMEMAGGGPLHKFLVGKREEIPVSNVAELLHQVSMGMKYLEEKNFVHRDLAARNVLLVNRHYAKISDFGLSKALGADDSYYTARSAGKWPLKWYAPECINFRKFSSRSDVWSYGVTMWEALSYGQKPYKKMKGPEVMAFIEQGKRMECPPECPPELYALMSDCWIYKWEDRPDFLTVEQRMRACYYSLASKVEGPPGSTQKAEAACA
Chain of UniProt O94768 (whole entry, looked up): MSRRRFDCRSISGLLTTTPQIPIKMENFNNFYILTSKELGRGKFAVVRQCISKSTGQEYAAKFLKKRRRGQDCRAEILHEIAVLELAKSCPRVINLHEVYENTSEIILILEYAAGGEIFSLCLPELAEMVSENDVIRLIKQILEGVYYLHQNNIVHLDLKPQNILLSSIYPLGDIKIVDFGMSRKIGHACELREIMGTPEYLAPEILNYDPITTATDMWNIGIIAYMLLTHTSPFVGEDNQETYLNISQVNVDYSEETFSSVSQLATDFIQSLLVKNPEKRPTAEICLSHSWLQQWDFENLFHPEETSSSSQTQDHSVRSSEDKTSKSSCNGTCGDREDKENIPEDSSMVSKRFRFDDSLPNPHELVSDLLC

Series 1 — read-out: enzyme activity; action: inhibitor; tested at: 10 µM
Target: Calcium/calmodulin-dependent protein kinase type II subunit alpha (CAMK2A, Homo sapiens, UniProt Q9UQM7)
Chain of UniProt Q9UQM7 (whole entry, looked up): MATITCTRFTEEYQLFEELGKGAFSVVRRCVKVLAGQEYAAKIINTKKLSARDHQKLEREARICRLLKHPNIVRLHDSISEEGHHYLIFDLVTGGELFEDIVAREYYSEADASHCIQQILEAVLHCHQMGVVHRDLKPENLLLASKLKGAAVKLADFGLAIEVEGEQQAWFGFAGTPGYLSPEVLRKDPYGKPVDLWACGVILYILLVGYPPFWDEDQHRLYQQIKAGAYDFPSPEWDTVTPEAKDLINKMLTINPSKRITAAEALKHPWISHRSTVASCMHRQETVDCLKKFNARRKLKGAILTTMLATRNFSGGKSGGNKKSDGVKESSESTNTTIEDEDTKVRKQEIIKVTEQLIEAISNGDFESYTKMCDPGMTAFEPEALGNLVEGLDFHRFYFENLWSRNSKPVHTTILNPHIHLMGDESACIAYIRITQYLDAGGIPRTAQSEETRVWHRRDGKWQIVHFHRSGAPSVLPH
For `OC[C@H]1OC[C@H](O)[C@@H](O)[C@@H]1O`, the inhibition was -7%.
The inhibition of `CC(C)[C@H](N)C(=O)OCCOCn1cnc2c(=O)[nH]c(N)nc21` is reported as -4%.
With `Oc1ccc(C2COc3cc(O)ccc3C2)cc1` (racemic) the inhibition was -11%.
`O=C(O)CP(=O)(O)O` gave an inhibition of 0%.
With `O=C1/C(=C/c2ccc(O)c(O)c2)COc2cc(O)ccc21` the inhibition was -33%.
With `Cc1ncc(CO)c(C(=O)O)c1O` the inhibition was 3%.
`OCCN(CCO)c1nc(N2CCCCC2)c2nc(N(CCO)CCO)nc(N3CCCCC3)c2n1` has an inhibition of -8%.
With `CC(C(O)c1ccc(O)cc1)N1CCC(Cc2ccccc2)CC1` (stereo not shown) the inhibition was 5%.

Series 2 — action: inhibitor; tested at: 10 µM; reference: control
Target: Diamine acetyltransferase 1 (Homo sapiens, UniProt P21673)
Residues (P21673 1-171): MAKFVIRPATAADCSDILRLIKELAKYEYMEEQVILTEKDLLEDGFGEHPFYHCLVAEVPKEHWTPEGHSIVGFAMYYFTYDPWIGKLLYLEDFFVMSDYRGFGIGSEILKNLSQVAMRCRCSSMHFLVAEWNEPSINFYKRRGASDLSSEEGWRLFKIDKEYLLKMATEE
`CC1=CCC(C(C)C)=CC1` gave a remaining activity of 103%.
With `CCCCCCCCCC(C)O` (stereo not shown) the remaining activity was 103%.
The remaining activity of `CC(C)c1ccc2c(c1)CC[C@H]1[C@](C)(C(=O)O)CCC[C@]21C` is reported as 102%.
`CC1=C(/C=C/C(C)=C/C=C/C(C)=C/C=C/C=C(C)/C=C/C=C(C)/C=C/C2=C(C)C[C@@H](O)CC2(C)C)C(C)(C)C[C@H](O)C1` gave a remaining activity of 101%.
`CCCCCCCCCCCCCCCCCC(=O)O` gave a remaining activity of 91.3%.
For `COc1cc2c(cc1OC)[C@@H](Cc1ccc(O)c(Oc3cc4c(cc3OC)CCN(C)[C@@H]4Cc3ccc(O)cc3)c1)N(C)CC2`, the remaining activity was 99.9%.
For `O=c1c(-c2ccc(O)cc2)coc2cc(O)ccc12`, the remaining activity was 107%.
`CCCCCCCCC[C@H](O)CC(=O)CCc1ccc(O)c(OC)c1` gave a remaining activity of 115%.
`CC(C)(O)[C@@H]1CC[C@](C)([C@H]2[C@@H](O)C[C@@]3(C)[C@@H]4C[C@H](O)[C@H]5C(C)(C)[C@@H](O[C@@H]6OC[C@@H](O)[C@H](O)[C@H]6O[C@@H]6O[C@H](CO)[C@@H](O)[C@H](O)[C@H]6O)CC[C@@]56C[C@@]46CC[C@]23C)O1` gave a remaining activity of 102%.
For `C[C@@H]1CC[C@@H]2C(C(=O)O)=CO[C@@H](O[C@@H]3O[C@H](CO)[C@@H](O)[C@H](O)[C@H]3O)[C@H]12`, the remaining activity was 103%.
For `C[C@@H]1O[C@@H](O[C@H]2[C@H](OC(=O)[C@]34CCC(C)(C)C[C@H]3C3=CC[C@@H]5[C@@]6(C)C[C@H](O)[C@H](O[C@@H]7O[C@H](CO)[C@@H](O)[C@H](O)[C@H]7O)[C@](C)(CO)[C@@H]6CC[C@@]5(C)[C@]3(C)C[C@H]4O)OC[C@H](O)[C@@H]2O)[C@H](O)[C@H](O)[C@H]1O[C@@H]1OC[C@@H](O)[C@H](O[C@@H]2OC[C@](O)(CO)[C@H]2O)[C@H]1O`, the remaining activity was 97.2%.
With `CC/C=C\C/C=C\C/C=C\CCCCCCCC(=O)OC` the remaining activity was 112%.

Series 3 — SMILES: O=c1nc(-c2ccccn2)sc2ccccc12; tested at: 1 µM
PLK4 (Homo sapiens, UniProt O00444); binding, competition with immobilised ligand — remaining binding: 80%.
The remaining binding was 85% (SIK3 (Homo sapiens, UniProt Q9Y2K2); binding, competition with immobilised ligand).
The remaining binding was 97% (PRKD2 (Homo sapiens, UniProt Q9BZL6); binding, competition with immobilised ligand).
The remaining binding was 80% (STK17B (Homo sapiens, UniProt O94768); cell-free assay, competition with immobilised ligand).
The remaining binding was 82% (GSK3A (Homo sapiens, UniProt P49840); cell-free assay, competition with immobilised ligand).
For HIPK3 (Homo sapiens, UniProt Q9H422); binding, competition with immobilised ligand: remaining binding read 92%.
For CLK4 (Homo sapiens, UniProt Q9HAZ1); binding, competition with immobilised ligand: remaining binding read 90%.
It gave 100% for remaining binding (EPHA2 (Homo sapiens, UniProt P29317); cell-free assay, competition with immobilised ligand).
It gave 100% for remaining binding (MAP2K1 (Homo sapiens, UniProt Q02750); binding, competition with immobilised ligand).
The remaining binding was 100% (STK32C (Homo sapiens, UniProt Q86UX6); binding, competition with immobilised ligand).
RET (Homo sapiens, UniProt P07949, M918T); binding, competition with immobilised ligand — remaining binding: 81%.
The remaining binding was 68% (CSNK2A1 (Homo sapiens, UniProt P68400); cell-free assay, competition with immobilised ligand).
The remaining binding was 97% (GAK (Homo sapiens, UniProt O14976); binding, competition with immobilised ligand).
ZAP70 (Homo sapiens, UniProt P43403); binding, competition with immobilised ligand — remaining binding: 100%.
For RIPK4 (Homo sapiens, UniProt P57078); binding, competition with immobilised ligand: remaining binding read 84%.
For YES1 (Homo sapiens, UniProt P07947); binding, competition with immobilised ligand: remaining binding read 100%.
The remaining binding was 96% (CSNK1G1 (Homo sapiens, UniProt Q9HCP0); cell-free assay, competition with immobilised ligand).
The remaining binding was 100% (Non-receptor tyrosine-protein kinase TYK2, JH1 (TYK2, Homo sapiens, UniProt P29597); binding, competition with immobilised ligand).
For MELK (Homo sapiens, UniProt Q14680); binding, competition with immobilised ligand: remaining binding read 82%.
For INSRR (Homo sapiens, UniProt P14616); binding, competition with immobilised ligand: remaining binding read 86%.
It gave 100% for remaining binding (PIP5K1A (Homo sapiens, UniProt Q99755); cell-free assay, competition with immobilised ligand).
It gave 91% for remaining binding (Tyrosine-protein kinase ABL1, phosphorylated (ABL1, Homo sapiens, UniProt P00519, F317I); binding).
The remaining binding was 88% (CDKL3 (Homo sapiens, UniProt Q8IVW4); binding, competition with immobilised ligand).
It gave 80% for remaining binding (IGF1R (Homo sapiens, UniProt P08069); cell-free assay, competition with immobilised ligand).
The remaining binding was 97% (DCLK3 (Homo sapiens, UniProt Q9C098); binding, competition with immobilised ligand).

Series 4 — read-out: enzyme activity; action: inhibitor; tested at: 1 µM
SMILES: CC(C)S(=O)(=O)c1ccc2nccc(Nc3ccc4sc(C5CCCC5)nc4c3)c2c1
CDC7 (Homo sapiens, UniProt O00311) — “activity vs control”: 90%.
BTK (Homo sapiens, UniProt Q06187) — “activity vs control”: 99%.
The “activity vs control” was 93% (IRAK4 (Homo sapiens, UniProt Q9NWZ3)).
PRKG2 (Homo sapiens, UniProt Q13237) — “activity vs control”: 118%.
STK38L (Homo sapiens, UniProt Q9Y2H1) — “activity vs control”: 110%.
The “activity vs control” was 99% (WEE2 (Homo sapiens, UniProt P0C1S8)).
SLK (Homo sapiens, UniProt Q9H2G2) — “activity vs control”: 92%.
For STK32A (Homo sapiens, UniProt Q8WU08): “activity vs control” read 102%.
For SBK1 (Homo sapiens, UniProt Q52WX2): “activity vs control” read 102%.
PRKACB (Homo sapiens, UniProt P22694) — “activity vs control”: 99.5%.

For quick reference, copied from above (series 3):
ZAP70 (Homo sapiens, UniProt P43403); binding, competition with immobilised ligand — remaining binding: 100%.
For RIPK4 (Homo sapiens, UniProt P57078); binding, competition with immobilised ligand: remaining binding read 84%.
For YES1 (Homo sapiens, UniProt P07947); binding, competition with immobilised ligand: remaining binding read 100%.
The remaining binding was 96% (CSNK1G1 (Homo sapiens, UniProt Q9HCP0); cell-free assay, competition with immobilised ligand).
The remaining binding was 100% (Non-receptor tyrosine-protein kinase TYK2, JH1 (TYK2, Homo sapiens, UniProt P29597); binding, competition with immobilised ligand).
For MELK (Homo sapiens, UniProt Q14680); binding, competition with immobilised ligand: remaining binding read 82%.
For INSRR (Homo sapiens, UniProt P14616); binding, competition with immobilised ligand: remaining binding read 86%.
